Measurements pooled from the literature.
Each line is one published result; not all experiments were run side by side. Converted amounts (≈) assume the structure as drawn.
Sequence of UniProt Q53GS9 (whole entry, looked up): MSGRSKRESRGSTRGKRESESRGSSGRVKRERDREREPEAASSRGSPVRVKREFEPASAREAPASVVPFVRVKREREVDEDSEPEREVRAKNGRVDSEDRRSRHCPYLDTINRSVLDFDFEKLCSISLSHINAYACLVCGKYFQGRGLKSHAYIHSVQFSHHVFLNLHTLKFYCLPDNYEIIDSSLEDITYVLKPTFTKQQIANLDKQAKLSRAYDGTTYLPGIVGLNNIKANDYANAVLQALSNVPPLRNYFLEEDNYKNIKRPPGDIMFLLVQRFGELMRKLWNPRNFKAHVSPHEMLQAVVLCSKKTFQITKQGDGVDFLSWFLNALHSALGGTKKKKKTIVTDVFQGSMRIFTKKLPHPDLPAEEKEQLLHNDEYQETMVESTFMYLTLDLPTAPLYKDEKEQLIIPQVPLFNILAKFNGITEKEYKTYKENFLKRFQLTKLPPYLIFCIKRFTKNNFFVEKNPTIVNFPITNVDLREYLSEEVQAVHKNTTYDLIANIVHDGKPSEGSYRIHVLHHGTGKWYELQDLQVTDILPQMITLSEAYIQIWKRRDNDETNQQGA

Cn1ncc(Cl)c1-c1cc(C(=O)N[C@H](CN)Cc2cccc(F)c2)sc1Cl has an inhibition of 0.256% (NLRP3 inflammasome (mouse); mouse BMDM; 10 µM).
The IC50 of Cc1cccc(C)c1N(CC(=O)Nc1ccc(-c2ncon2)cc1)C(=O)C1CCS(=O)(=O)CC1 is reported as 0.1 µM (human alphaherpesvirus 1; live-cell GFP imaging; primary human fibroblasts, K26 GFP).
For OC(CCN1CCCCC1)(c1ccccc1)C1CC2C=CC1C2 (stereo not shown), “change, Gamma EEG power, in Fz-Cz” read 33.2% (resting-state EEG; healthy elderly humans; oral, 4 mg, eyes open, LS mean; relative to: baseline).
The selectivity index of Cc1nc(N(C)C(=O)Cc2ccc(-c3ccccn3)cc2)sc1S(N)(=O)=O is reported as 396 (human alphaherpesvirus 1; primary human keratinocytes, K26 GFP; relative to: CC50 over IC50).
For CN(C)C/C=C/C(=O)Nc1cc2c(Nc3ccc(F)c(Cl)c3)ncnc2cc1O[C@H]1CCOC1, the cell index was 95.6% (iCell Cardiomyocytes (hiPSC-derived); cellular impedance; concentration not given, 24 h; relative to: control).
COC(=O)[C@@H](CCSC)NCc1cc2ccccc2nc1SC gave a growth of 92.7% (Pseudomonas aeruginosa; 32 µg/mL, without pentamidine; relative to: control).
CC(C)(C)Cn1c(N)nc2ccc(-c3[nH]c(C(C)(C)C)nc3-c3ccc(F)cc3)nc21 gave an inhibition of 13.2% (NLRP3 inflammasome (mouse); mouse BMDM; 10 µM).
For NC[C@H](O)c1ccc(O)c(O)c1, “z-scored log2 fold change” read 0.0769 (binding, equilibrium dialysis LC-MS; 5 µM, thermostabilized A2AR-BRIL construct; relative to: no-protein control, direction not given).
The inhibition of Cc1[nH]c(/C=C2\C(=O)Nc3ccc(F)cc32)c(C)c1C(=O)NCCN1CCCC1 is reported as 92.6% (NLRP3 inflammasome (mouse); mouse BMDM; 10 µM).
Under “difference from placebo”, C[C@H](Oc1ccc(Br)cc1-c1ccon1)C(=O)O is recorded as 1.98% (first response peak; human, tibialis anterior muscle; 200 mg, 30-15 Hz, SAD).
Under “log2 fold change”, c1coc(-c2n[nH]cc2-c2ccnc3ccccc23)c1 is recorded as -0.06 (orf19.6492 Candida albicans; kinase binding, MIB/MS competition; Candida albicans lysate; 10 µM; relative to: DMSO).
With O=C(/C=C\n1cnc(-c2cc(C(F)(F)F)cc(C(F)(F)F)c2)n1)NNc1ccccn1 the IC50 was > 60 µM (human alphaherpesvirus 1; live-cell GFP imaging; primary human fibroblasts, K26 GFP).
Under “log2 fold change”, Cn1cc(-c2ccc(-c3cncc(Cl)c3N3CCC4(CCNC4=O)CC3)cc2)cn1 is recorded as 2.22 (COLO 205; gene expression, microarray, measured: VLDLR mRNA; concentration not given, 2 h; relative to: untreated cells).
With CN1CCN(c2ccc3nc(-c4c(N)c5c(F)cccc5[nH]c4=O)[nH]c3c2)CC1 the beat rate was 75.6% (iCell Cardiomyocytes (hiPSC-derived); xCELLigence Cardio impedance; concentration not given, 2 h; relative to: control).
Cc1[nH]c(/C=C2\C(=O)Nc3ccccc32)c(C)c1CCC(=O)O gave an inhibition of 5.16% (NLRP3 inflammasome (mouse); mouse BMDM; 10 µM).
Under “z-scored log2 fold change”, N[C@H](CC(=O)O)C(=O)O is recorded as 0.302 (binding, equilibrium dialysis LC-MS; 5 µM, thermostabilized A2AR-BRIL construct; relative to: no-protein control, direction not given).
The EC50 of COc1cnc2cccc(N3CCc4c(cc(Cn5ccnc5C)cc4-c4cn(C)nc4C(F)(F)F)C3=O)c2c1 is reported as > 30 µM (HCC1195; cell growth; 120 h).
CNS(=O)(=O)C[C@H]1CC[C@H](N(C)c2[nH]cnc3nccc2-3)CC1 has an inhibition of 81.1% (NLRP3 inflammasome (mouse); mouse BMDM; 10 µM).
For CN[C@H](CC(C)C)C(=O)N[C@H]1C(=O)N[C@@H](CC(N)=O)C(=O)N[C@H]2C(=O)N[C@H]3C(=O)N[C@H](C(=O)N[C@H](C(=O)O)c4cc(O)cc(O)c4-c4cc3ccc4O)[C@H](O)c3ccc(c(Cl)c3)Oc3cc2cc(c3O[C@@H]2O[C@H](CO)[C@@H](O)[C@H](O)[C@H]2O[C@H]2C[C@](C)(N)[C@H](O)[C@H](C)O2)Oc2ccc(cc2Cl)[C@H]1O, the MIC50 was 1 µg/mL (≈ 0.69 µM) (Staphylococcus epidermidis).
With Nc1ccn([C@@H]2O[C@H](CO)[C@@H](O)C2(F)F)c(=O)n1 the IC50 was 0.05 µM (human alphaherpesvirus 1; live-cell GFP imaging; primary human fibroblasts, K26 GFP).
With Cc1cc2c(F)c(Oc3ncnn4cc(OC[C@@H](C)O)c(C)c34)ccc2[nH]1 the cell index was 102% (iCell Cardiomyocytes (hiPSC-derived); cellular impedance; concentration not given, 24 h; relative to: control).
O=C(O)CNC(=O)Cc1ccc(O)cc1: “z-scored log2 fold change” 1.41 (binding, equilibrium dialysis LC-MS; 5 µM, thermostabilized A2AR-BRIL construct; relative to: no-protein control, direction not given).
With O=C(c1ccc(/C=C/c2n[nH]c3ccccc23)cc1)N1CCNCC1 the beat rate was 77.9% (iCell Cardiomyocytes (hiPSC-derived); xCELLigence Cardio impedance; concentration not given, 2 h; relative to: control).
The inhibition of COc1ccc(Cl)c(Nc2nc3ccccc3nc2NS(=O)(=O)c2cccc(NC(=O)C(C)(C)N)c2)c1 is reported as 57.8% (NLRP3 inflammasome (mouse); mouse BMDM; 10 µM).
With O=C(NOCC1CC1)c1ccc(F)c(F)c1Nc1ccc(I)cc1Cl the beat amplitude was 97.8% (iCell Cardiomyocytes (hiPSC-derived); xCELLigence Cardio impedance; concentration not given, 2 h; relative to: control).
For COc1ccc(-c2nc(N3CCOCC3)c3sc(CN(C)c4ncc(C(=O)NO)cn4)cc3n2)cn1, the selectivity index was < 0.15 (human alphaherpesvirus 1; primary human fibroblasts, K26 GFP; CC50 capped at 10.00 µM; relative to: CC50 over IC50).
NC(CCS)C(=O)O (racemic): “z-scored log2 fold change” 0.377 (binding, equilibrium dialysis LC-MS; 5 µM, thermostabilized A2AR-BRIL construct; relative to: no-protein control, direction not given).
With O=C(O)Cc1cccc2cccnc12 the Kd was > 1000 µM (Ubiquitin carboxyl-terminal hydrolase 39, ZnF-UBD domain (Homo sapiens, UniProt Q53GS9)).
Under “z-scored log2 fold change”, N[C@@H](Cc1ccc(O)cc1)C(=O)O is recorded as 0.364 (binding, equilibrium dialysis LC-MS; 5 µM, thermostabilized A2AR-BRIL construct; relative to: no-protein control, direction not given).
The sarcomere length of CC(C)NCC(O)c1ccc(O)c(O)c1 (stereo not shown) is reported as 1.59 µm (ventricular cardiomyocytes, C57BL/6 mouse; dose not given, 0.144 s).
O=C(NC1CCNCC1)c1[nH]ncc1NC(=O)c1c(Cl)cccc1Cl has an ATP level of 94.5% (iCell Cardiomyocytes (hiPSC-derived); CellTiter-Glo; concentration not given, 24 h; relative to: control).
For C[C@@H]1COCCN1c1cc(C2([S@](C)(=N)=O)CC2)nc(-c2cc[nH]c3nccc2-3)n1, the inhibition was 74.4% (NLRP3 inflammasome (mouse); mouse BMDM; 10 µM).
For NS(=O)(=O)c1nnc(NC(=O)C2CC23CCOCC3)s1 (stereo not shown), the Ki was 0.0628 µM (Alpha-carbonic anhydrase (Enterococcus faecium, UniProt Q3XYE8); CO2 hydration, inhibitor, stopped-flow kinetics).
CC(C)NC(=O)[C@H]1CC[C@@H](n2/c(=N/C(=O)c3ccc(F)cc3)[nH]c3ccc(CN4CCC(C(C)(C)O)CC4)cc32)CC1 has an inhibition of 6.72% (NLRP3 inflammasome (mouse); mouse BMDM; 10 µM).
For O=C(O)c1ccc(Nc2ncc3c(n2)-c2ccc(Cl)cc2C(c2c(F)cccc2F)=NC3)cc1, the beat amplitude was 100% (iCell Cardiomyocytes (hiPSC-derived); xCELLigence Cardio impedance; concentration not given, 2 h; relative to: control).
For CC(=O)N[C@@H](CC(=O)O)C(=O)O, “z-scored log2 fold change” read 0.238 (binding, equilibrium dialysis LC-MS; 5 µM, thermostabilized A2AR-BRIL construct; relative to: no-protein control, direction not given).
With Nc1nc(-c2ccccc2)nc2[nH]nc(Nc3ccc(C(F)(F)F)cc3)c12 the clinical score was 0.22 (coxsackievirus B3; 31-1-93, NMRI mice, CVB3 chronic myocarditis; oral, 100 mg/kg twice daily, day 3, dosed days 1 to 7, score scale 0 to 7; direction not given).
Under “log2 fold change”, Oc1ccccc1-c1n[nH]cc1-c1ccnc2ccccc12 is recorded as 0.04 (NPR1 (Candida albicans); kinase binding, MIB/MS competition; Candida albicans lysate; 10 µM; relative to: DMSO).
CC(CNC(N)=O)C(=O)O (racemic): “z-scored log2 fold change” 0.292 (binding, equilibrium dialysis LC-MS; 5 µM, thermostabilized A2AR-BRIL construct; relative to: no-protein control, direction not given).
NC(=O)c1cnc2[nH]ccc2c1N[C@@H]1[C@@H]2CC3C[C@H]1C[C@@](O)(C3)C2 gave a percent change of -1.2% (CD8+ CD28+ naive T cells, flow cytometry; Caucasian humans, peripheral blood; 200 mg single dose; relative to: baseline).
Under “z-scored log2 fold change”, CCCCCCCCCC(=O)O is recorded as 1.42 (binding, equilibrium dialysis LC-MS; 5 µM, thermostabilized A2AR-BRIL construct; relative to: no-protein control, direction not given).
For C[S+]([O-])c1ccc(-c2nc(-c3ccncc3)c(-c3ccc(F)cc3)[nH]2)cc1 (stereo not shown), the beat amplitude was 100% (iCell Cardiomyocytes (hiPSC-derived); xCELLigence Cardio impedance; concentration not given, 2 h; relative to: control).
Under “log2 fold change”, N#Cc1ccc2c(-c3ccncc3)c(-c3ccc(F)cc3)nn2c1 is recorded as 0.00688 (orf19.3456 kinase Candida albicans; MIB/MS competition binding; Candida albicans cell lysate; 1 µM; relative to: DMSO, lower = stronger binding).
